Results from different studies.
A part holds a random share of what one study measured. Several values in a cell are separate wells, animals, samples, runs or records. In brackets after ≈: the same amount, converted by molar mass.

Series 1 — organism: Staphylococcus aureus; strain: USA300
Compound: CCCCC[C@@H]1CC(=O)N[C@@H](C(C)C)C(=O)N[C@H](CCC(=O)O)C(=O)N[C@@H](CCCNC(=N)N)C(=O)NCC(=O)N2CCC[C@H]2C(=O)N[C@@H](CC(C)C)C(=O)N[C@H](CCC(N)=O)C(=O)N[C@@H](CCC(=O)O)C(=O)N[C@H](Cc2ccc(O)cc2)C(=O)N[C@H](Cc2c[nH]c3ccccc23)C(=O)NCCCC(=O)O1
| with | MIC [µg/mL] |
| --- | --- |
| ubiquinone 4 µg/mL | 4 (≈ 2.69 µM) |
| menaquinone 0 µg/mL | 4 (≈ 2.69 µM) |
| menaquinone 4 µg/mL | 32 (≈ 21.5 µM) |
| menaquinone 2 µg/mL | 16 (≈ 10.8 µM) |
| menaquinone 64 µg/mL | > 64 |

Series 2 — action: degrader; technique: HiBiT; cells: HEK293
Compound: Cn1cc(-c2cccc(CN3CCC4(CC3)COc3c4ccc4c3CN(C3CCC(=O)NC3=O)C4=O)c2)cn1 (stereo not shown)
Target: CRBN/Zinc finger protein Helios (Homo sapiens, UniProt Q96SW2+Q9UKS7)
Chain of UniProt Q9UKS7 (whole entry, looked up): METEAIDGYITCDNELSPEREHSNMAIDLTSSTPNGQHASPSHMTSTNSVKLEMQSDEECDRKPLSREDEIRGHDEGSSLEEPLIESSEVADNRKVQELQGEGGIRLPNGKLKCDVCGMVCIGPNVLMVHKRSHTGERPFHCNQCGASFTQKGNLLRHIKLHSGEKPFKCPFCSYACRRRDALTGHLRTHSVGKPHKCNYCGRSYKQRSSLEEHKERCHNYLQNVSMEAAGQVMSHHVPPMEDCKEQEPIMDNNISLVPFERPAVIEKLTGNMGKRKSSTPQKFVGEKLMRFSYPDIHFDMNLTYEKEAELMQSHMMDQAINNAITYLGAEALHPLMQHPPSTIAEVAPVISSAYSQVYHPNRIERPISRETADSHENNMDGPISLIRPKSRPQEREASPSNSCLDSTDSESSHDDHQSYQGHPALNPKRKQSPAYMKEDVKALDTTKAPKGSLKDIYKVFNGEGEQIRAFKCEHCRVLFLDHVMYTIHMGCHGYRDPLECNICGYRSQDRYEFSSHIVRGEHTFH
Chain of UniProt Q96SW2 (whole entry, looked up): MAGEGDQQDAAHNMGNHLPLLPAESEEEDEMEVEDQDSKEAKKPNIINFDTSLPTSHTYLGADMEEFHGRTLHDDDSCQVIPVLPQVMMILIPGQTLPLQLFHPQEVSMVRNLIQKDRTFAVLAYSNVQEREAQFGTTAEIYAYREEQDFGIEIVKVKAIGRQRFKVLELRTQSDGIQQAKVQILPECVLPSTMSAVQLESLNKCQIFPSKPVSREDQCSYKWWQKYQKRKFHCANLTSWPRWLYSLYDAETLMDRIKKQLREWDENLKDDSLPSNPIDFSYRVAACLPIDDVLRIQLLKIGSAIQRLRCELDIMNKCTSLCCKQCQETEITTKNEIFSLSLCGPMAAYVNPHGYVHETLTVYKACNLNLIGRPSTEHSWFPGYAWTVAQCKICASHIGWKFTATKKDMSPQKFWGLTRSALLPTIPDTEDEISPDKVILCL
| concentration | protein remaining [%] |
| --- | --- |
| 4.115 nM | 27.2 |
| 0.1524 nM | 99.8 |
| 0.05081 nM | 112 |
| 1000 nM | 12.1 |
| 111.1 nM | 10.5 |
| 1.372 nM | 53.5 |

Series 3 — observed: binding
Structure (SMILES): O=C1CC[C@@H](Nc2ccc(N3CCNCC3)c(F)c2)C(=O)N1
Target: Protein cereblon (CRBN, Homo sapiens, UniProt Q96SW2)
| concentration | inhibition |
| --- | --- |
| 10000 nM | 97.9% and 94.9% |
| 1111.11 nM | 51.9% and 67% |
| 3333.33 nM | 85.7% and 81.9% |

Further values, each from its own experiment — observed: binding; technique: competition with immobilised ligand; concentration: 1 µM
Target: Serine/threonine-protein kinase PknB (pknB, Mycobacterium tuberculosis, UniProt P9WI81)
Chain of UniProt P9WI81 (whole entry, looked up): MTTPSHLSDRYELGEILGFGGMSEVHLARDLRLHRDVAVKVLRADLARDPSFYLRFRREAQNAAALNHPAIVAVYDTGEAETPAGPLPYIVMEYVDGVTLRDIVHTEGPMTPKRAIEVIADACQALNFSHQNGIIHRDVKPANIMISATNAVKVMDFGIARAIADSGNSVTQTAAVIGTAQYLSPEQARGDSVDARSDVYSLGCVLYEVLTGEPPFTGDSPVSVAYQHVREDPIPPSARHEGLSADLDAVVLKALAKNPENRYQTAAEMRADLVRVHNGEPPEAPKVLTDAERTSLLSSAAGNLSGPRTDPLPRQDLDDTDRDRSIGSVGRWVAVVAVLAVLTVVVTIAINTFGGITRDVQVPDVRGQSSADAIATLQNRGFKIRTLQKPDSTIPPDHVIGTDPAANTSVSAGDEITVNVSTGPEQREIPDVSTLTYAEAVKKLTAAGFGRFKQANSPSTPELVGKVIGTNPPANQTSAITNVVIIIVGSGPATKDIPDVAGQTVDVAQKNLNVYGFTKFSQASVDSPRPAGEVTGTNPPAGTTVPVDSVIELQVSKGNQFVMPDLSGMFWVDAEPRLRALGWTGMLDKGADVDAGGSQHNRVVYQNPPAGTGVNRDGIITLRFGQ
| Structure (SMILES) | remaining binding [%] |
| --- | --- |
| CC[C@@]1(c2ccccc2)C2=C(CC(C)(C)CC2=O)Nc2n[nH]cc21 | 100 |
| CC[C@@]1(c2cccc(-c3c(F)cncc3OC)c2)C2=C(Nc3n[nH]cc31)[C@H](F)C(C)(C)CC2=O (single isomer, unassigned) | 75 |

Some of these lines once more (series 1):
| with | MIC [µg/mL] |
| --- | --- |
| menaquinone 0 µg/mL | 4 (≈ 2.69 µM) |
| menaquinone 64 µg/mL | > 64 |
